# Measured values gathered from unrelated publications.
# Each numbered part is a random draw from the data of one study; scales do not carry over between parts. Positions count from the first letter of the parent shown.

# Study 1 — target: CCNF, cyclin fold, Cln2 fusion (human); method: yeast growth competition, sequencing; sample: yeast; setting: strong parent motif; relative to: not given; direction: higher = stronger binding
# Starting sequence: MICAL3 docking peptide (human); LQLRRQLSFSEDS; partner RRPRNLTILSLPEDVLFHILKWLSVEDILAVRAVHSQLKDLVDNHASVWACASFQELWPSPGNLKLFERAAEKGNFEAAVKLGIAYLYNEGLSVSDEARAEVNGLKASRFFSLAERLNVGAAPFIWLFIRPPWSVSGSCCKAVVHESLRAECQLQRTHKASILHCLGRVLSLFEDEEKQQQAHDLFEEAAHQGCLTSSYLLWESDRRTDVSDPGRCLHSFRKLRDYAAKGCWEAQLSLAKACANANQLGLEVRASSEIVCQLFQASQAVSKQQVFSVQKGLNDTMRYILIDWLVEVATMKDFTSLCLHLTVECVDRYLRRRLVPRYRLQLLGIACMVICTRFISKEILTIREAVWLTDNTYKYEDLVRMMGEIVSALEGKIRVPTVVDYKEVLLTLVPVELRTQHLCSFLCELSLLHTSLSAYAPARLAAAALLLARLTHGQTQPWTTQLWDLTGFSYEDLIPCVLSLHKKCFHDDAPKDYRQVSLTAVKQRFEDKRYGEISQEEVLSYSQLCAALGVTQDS
Variant,normalised enrichment score
LQLRRRLSFSEDS [Q6R],7.03
LQLRRQLSFSEYS [D12Y],6.6
LQLRRQLGFSEDS [S8G],3.03
LQLMRQLSFSEDS [R4M],1.69
LQLRMQLSFSEDS [R5M],0.322

# Study 2 — method: protein-binding microarray; form: double-stranded DNA, one strand shown; sample: in vitro; tested at: 0.8 µM; setting: whole 60-bp probe, no competitor; direction: higher = stronger binding
# Target: Centromere-binding protein 1, full length, N-terminal tag (CBF1, Saccharomyces cerevisiae, UniProt P17106, residues 1-351)
# Chain of UniProt P17106 (whole entry, looked up): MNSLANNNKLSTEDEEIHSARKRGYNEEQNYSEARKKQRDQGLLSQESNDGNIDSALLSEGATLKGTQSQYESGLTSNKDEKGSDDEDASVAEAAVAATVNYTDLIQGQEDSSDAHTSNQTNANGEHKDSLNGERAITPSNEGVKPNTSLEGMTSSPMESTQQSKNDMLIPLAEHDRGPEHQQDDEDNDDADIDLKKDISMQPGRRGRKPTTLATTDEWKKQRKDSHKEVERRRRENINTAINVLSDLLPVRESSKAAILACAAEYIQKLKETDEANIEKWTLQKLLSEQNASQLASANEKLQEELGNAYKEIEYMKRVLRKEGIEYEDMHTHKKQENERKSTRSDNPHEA
Oligonucleotide,fluorescence intensity [a.u.]
GAATTTCTTGCCTTATACACCACCTATTCTGGCTAGGTCTTGATTCGCTTGACGCTGCTG,510
GAATACTGATGACAGCAGGTGTATTATTAATACTAGGTCTTGATTCGCTTGACGCTGCTG,582
GAAGGCATTTTCACTGGTGATGCACGCCCAGCGTAGGTCTTGATTCGCTTGACGCTGCTG,506
GAAGGAACGGCAAATCACGAAAATTTTCTGTCATAGGTCTTGATTCGCTTGACGCTGCTG,514

# Study 3 — method: RNA Bind-n-Seq; form: RNA; sample: in vitro; tested at: 100 nM; relative to: input RNA pool; direction: higher = stronger binding
# Target: RING finger protein unkempt homolog, zinc fingers 1-6, SBP tag (UNK, Homo sapiens, UniProt Q9C0B0, residues 30-357)
# Chain of UniProt Q9C0B0 (30-357, looked up): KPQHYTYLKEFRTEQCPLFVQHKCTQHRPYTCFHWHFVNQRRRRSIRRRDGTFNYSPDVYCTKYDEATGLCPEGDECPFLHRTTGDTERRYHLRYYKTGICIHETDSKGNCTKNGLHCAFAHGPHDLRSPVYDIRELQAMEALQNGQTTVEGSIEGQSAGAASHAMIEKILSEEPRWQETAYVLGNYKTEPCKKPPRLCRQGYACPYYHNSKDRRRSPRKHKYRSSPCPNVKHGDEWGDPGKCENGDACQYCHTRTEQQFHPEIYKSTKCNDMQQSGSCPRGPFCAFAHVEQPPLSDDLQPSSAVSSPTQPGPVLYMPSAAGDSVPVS
# Setting: RNA with constant flanks, vertebrate orthologous sites, ends assumed
# Shared flanks, not repeated: GGGAGUUCUACAGUCCGACGAUC … CAACAGAGGAUUGAGCAUCA
Oligonucleotide,bound/input enrichment [ratio]
GUGACUUUGGAAGUCUGCAGUGUCUCAUUGCAGAUACUACUUAGCUCAGGGCCUGGUGGCUAGACAGGUUCUCUCCUUUCCAGUCGGAGGCCUCUGCCGCAAACAUGCUCCGCCACAUCC,0.309
CUGAAGCUUUGUGUCUGGCUGCACCUGCAUAAGCUGCUACAAAUAGAAUAAAGAGUUUCAUGGCCUGUGUCUGCCACUGAGAUGCAUGGGGCACAUGGGCUUCGCACACAGUGGGUUUGG,0.67
CUCCUCUUAAUCCCAUCUCAUCUGUUUCAUAGUGCUGAAAUUCCAUCUUCAGCCGUAUUUUUAGUGAACUUAUUCUAAUUCUAGAGAAACUUCCAGUGGAUACUGUGAGCUAUAUGGGGA,1.53
UUACAGUCAUUGAUGGACUCUAUUUUUUUAUUAUUACUUGGACCUUGGUCGUUUUUAUACUAGCAAAAUGUCUUGUUUUAAUUUGUGUUUUUUCGGGGGGAGGGAGUGAACUUGCUGAUU,2.5
UAGUGCCAUGGUGGAGGGCUCCGAGCUCAAAAAGGUCCGCUCCAACUCCAGGAUUUACCACAGGUAUUUCUUGCUGGAUGCCGACAUGCAGAGCCUGAGGUGGGAACCAUCCAAGAAGGA,0.246

# Other studies, line by line
Substance,target,assay,system,conditions,scale,endpoint,value
"PhoQ, residues 284 288 289 292 302 303 SNSSNI","PhoP, residues 12 14 15 18 19 LHTVM (Escherichia coli, UniProt P23836)","Sort-seq, item: YFP reporter",E. coli,"PhoQ-PhoP variant library, with: 10 µM Mg2+","relative to: high Mg2+ state, higher = stronger signaling",fold induction,5.54

# Excerpt of the above (other studies, line by line):
Substance,target,assay,system,conditions,scale,endpoint,value
"PhoQ, residues 284 288 289 292 302 303 SNSSNI","PhoP, residues 12 14 15 18 19 LHTVM (Escherichia coli, UniProt P23836)","Sort-seq, item: YFP reporter",E. coli,"PhoQ-PhoP variant library, with: 10 µM Mg2+","relative to: high Mg2+ state, higher = stronger signaling",fold induction,5.54
